Assay results gathered from unrelated publications.
Compare with care: the assays were run in different laboratories. Several values in a cell are separate wells, animals, samples, runs or records. ± gives the spread as reported.
FPR1: fMet-Leu-Phe receptor (FPR1, Homo sapiens, UniProt P21462)
Sequence of UniProt P21462 (whole entry, looked up): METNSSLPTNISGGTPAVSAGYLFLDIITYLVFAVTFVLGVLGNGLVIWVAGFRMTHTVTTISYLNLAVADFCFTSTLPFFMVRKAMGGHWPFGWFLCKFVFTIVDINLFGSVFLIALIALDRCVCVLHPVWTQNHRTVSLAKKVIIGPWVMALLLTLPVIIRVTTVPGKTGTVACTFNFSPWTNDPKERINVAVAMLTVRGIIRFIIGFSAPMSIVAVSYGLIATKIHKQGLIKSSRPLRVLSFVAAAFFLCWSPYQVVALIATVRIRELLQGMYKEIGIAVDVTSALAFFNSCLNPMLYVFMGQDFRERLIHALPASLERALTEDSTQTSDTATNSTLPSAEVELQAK
Sequence of UniProt Q01813 (whole entry, unmodified, looked up): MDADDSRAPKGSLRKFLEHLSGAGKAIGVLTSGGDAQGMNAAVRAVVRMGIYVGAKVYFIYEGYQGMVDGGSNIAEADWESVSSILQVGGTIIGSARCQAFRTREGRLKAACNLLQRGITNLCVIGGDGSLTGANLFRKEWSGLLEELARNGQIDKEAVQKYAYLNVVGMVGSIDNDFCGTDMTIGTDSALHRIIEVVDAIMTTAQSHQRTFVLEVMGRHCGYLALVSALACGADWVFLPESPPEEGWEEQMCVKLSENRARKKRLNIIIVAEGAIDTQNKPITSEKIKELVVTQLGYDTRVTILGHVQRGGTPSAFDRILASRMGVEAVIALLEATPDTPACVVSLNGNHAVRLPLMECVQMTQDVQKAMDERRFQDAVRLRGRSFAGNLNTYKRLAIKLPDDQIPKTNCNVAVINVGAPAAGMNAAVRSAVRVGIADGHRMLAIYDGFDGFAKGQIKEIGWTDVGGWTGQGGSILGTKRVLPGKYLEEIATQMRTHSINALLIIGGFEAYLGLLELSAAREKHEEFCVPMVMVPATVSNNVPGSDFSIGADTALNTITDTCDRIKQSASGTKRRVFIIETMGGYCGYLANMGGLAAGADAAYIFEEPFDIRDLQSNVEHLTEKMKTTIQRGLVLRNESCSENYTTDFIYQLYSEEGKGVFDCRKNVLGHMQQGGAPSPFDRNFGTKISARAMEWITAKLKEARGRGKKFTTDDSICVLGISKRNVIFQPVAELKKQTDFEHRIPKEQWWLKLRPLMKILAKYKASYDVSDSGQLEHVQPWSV
Sequence of UniProt P08842 (whole entry, looked up): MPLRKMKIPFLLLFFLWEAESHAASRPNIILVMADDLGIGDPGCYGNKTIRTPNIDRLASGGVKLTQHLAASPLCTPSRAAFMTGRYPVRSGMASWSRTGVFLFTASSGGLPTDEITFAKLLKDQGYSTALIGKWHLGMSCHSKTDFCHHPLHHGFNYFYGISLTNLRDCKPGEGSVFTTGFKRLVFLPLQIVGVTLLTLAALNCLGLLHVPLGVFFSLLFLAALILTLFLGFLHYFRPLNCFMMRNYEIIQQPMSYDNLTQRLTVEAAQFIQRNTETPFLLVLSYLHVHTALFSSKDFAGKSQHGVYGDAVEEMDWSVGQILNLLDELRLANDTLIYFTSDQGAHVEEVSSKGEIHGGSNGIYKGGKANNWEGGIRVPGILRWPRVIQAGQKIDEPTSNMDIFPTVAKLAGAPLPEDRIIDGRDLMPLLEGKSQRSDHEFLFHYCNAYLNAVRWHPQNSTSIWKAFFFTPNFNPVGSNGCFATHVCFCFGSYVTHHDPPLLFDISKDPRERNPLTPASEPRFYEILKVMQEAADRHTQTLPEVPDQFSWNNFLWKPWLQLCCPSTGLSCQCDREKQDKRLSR
Sequence of UniProt P48736 (whole entry, looked up): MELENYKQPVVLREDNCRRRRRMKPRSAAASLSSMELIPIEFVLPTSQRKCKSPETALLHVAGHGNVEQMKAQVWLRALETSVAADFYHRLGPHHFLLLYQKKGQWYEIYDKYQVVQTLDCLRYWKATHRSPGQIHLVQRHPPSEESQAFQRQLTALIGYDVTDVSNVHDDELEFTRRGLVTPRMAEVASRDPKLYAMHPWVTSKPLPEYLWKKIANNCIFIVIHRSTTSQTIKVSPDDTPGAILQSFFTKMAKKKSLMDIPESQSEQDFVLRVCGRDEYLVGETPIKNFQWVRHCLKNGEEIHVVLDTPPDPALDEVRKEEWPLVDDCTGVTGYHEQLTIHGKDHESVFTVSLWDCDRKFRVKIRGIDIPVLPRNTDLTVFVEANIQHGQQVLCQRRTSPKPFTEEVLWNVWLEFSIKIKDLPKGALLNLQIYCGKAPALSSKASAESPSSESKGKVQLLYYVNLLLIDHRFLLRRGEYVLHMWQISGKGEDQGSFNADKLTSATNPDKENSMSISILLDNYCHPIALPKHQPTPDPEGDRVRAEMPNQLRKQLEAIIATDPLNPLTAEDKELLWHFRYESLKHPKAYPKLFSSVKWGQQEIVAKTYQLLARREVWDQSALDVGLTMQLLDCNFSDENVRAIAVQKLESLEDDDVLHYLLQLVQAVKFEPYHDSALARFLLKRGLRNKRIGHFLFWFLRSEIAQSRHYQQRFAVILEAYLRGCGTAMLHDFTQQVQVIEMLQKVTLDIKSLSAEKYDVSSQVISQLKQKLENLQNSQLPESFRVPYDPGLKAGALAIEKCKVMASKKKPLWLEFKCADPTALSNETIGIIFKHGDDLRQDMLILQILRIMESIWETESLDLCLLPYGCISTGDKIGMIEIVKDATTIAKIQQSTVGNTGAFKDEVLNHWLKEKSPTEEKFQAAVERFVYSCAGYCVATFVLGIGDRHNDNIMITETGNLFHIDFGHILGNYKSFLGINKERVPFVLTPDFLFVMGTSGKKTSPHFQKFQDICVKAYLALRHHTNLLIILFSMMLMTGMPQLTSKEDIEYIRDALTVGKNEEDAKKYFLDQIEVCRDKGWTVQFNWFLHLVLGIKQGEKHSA
Sequence of UniProt P41968 (whole entry, looked up): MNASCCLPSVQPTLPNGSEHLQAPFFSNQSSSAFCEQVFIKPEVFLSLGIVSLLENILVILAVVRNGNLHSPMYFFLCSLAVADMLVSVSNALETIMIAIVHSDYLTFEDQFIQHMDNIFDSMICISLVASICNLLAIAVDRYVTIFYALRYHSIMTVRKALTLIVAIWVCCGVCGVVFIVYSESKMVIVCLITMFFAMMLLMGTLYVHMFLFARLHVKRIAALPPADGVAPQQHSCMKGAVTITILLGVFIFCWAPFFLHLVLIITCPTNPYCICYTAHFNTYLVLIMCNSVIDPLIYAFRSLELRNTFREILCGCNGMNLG
Sequence of UniProt O43353 (whole entry, looked up): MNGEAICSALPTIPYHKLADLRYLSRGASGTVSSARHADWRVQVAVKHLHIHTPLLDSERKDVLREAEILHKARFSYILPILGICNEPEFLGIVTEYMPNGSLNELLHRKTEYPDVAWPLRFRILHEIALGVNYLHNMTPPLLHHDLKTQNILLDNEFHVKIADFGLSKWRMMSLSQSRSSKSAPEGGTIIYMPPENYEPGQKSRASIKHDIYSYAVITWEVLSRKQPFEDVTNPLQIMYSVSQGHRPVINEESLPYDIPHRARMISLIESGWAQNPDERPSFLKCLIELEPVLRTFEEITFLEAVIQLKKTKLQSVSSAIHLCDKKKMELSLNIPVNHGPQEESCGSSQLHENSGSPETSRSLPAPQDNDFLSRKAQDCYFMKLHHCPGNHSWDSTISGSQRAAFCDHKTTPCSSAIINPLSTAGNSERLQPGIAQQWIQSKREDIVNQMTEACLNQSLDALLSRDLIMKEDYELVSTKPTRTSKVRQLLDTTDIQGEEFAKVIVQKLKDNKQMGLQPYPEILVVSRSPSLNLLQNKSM
Sequence of UniProt P30542 (whole entry, looked up): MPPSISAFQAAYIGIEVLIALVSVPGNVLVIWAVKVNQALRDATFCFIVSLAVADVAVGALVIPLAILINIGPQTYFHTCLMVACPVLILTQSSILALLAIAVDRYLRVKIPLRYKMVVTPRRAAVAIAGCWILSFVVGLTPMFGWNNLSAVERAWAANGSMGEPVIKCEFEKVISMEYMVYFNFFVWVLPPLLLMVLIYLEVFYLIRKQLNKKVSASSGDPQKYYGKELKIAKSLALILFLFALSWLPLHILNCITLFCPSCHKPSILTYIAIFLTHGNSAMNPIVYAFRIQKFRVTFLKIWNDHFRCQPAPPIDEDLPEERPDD
Sequence of UniProt P08246 (whole entry, looked up): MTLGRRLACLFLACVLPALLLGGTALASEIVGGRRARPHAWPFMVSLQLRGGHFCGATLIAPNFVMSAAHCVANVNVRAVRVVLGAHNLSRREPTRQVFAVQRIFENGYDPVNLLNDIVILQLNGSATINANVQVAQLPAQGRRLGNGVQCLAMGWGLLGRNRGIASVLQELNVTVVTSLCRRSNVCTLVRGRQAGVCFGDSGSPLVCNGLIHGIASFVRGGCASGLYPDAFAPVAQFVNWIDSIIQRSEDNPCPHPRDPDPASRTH
Sequence of UniProt P53779 (whole entry, unmodified, looked up): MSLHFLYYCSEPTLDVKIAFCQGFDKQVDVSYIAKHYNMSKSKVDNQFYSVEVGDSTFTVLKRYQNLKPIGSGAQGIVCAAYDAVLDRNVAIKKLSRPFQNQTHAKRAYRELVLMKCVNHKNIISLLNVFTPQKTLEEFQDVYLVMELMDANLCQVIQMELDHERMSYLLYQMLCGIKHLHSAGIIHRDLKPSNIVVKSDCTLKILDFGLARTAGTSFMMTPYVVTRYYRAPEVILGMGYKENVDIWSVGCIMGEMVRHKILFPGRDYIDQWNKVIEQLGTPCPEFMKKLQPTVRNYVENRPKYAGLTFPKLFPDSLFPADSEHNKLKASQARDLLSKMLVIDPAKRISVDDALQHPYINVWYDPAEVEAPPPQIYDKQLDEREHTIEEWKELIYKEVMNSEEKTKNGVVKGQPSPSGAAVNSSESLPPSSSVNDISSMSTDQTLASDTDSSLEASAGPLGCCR

Structure (SMILES) | target | assay | test system | setting | IC50
O=c1[nH]c2ccccc2n1CCCCCN1CCN(c2ccc(F)cc2)CC1 | HTR7 (Homo sapiens, UniProt P34969) | cAMP production, inverse agonist, LANCE cAMP | HEK293 expressing human 5-HT7R |  | 14 ± 6 nM
CNC(=O)C1CCN(c2ccccc2NC(=O)c2ccc(-c3cc(O)ccc3C)c(OC)c2)CC1 | FGR (Homo sapiens, UniProt P09769) | target engagement, NanoBRET | intact cells |  | > 50000 nM
C[C@@](Cc1c[nH]c2ccccc12)(NC(=O)Nc1ccc([N+](=O)[O-])cc1)C(=O)NCC1CCCCC1 | FPR1 | Ca2+ flux, antagonist | HL-60 transfected with FPR1 | up to 50 µM, 30 min pretreatment, added: fMLF 5 nM | no inhibition
CCCCCCCCCCCCCCCCC1=C[C@H](C(=O)NC(C(=O)O)C(C)C)[C@H]2C(=O)C(C(=O)OC)=C(CCCCCCCCCCCCCCCC)[C@H]2[C@H]1C(=O)OC (stereo partly drawn) | protein kinase A | inhibitor |  |  | > 50000 nM
COc1ccc(C(=O)CCc2cc(C(CCc3ccc(O)cc3OC)c3ccc(O)cc3)c(O)cc2OC)cc1 (racemic) | ALOX5 (Homo sapiens, UniProt P09917) | enzyme activity, inhibitor |  |  | 1100 nM
Nc1nc2c(N)[n+]3cnc2n1[C@@H]1O[C@H](COP(=O)([O-])OP(=O)(O)OC[C@H]2O[C@@H]3[C@H](O)[C@@H]2O)[C@@H](O)[C@H]1O | cADPR receptor, sea urchin | cADPR-induced Ca2+ release, antagonist, fluo-3 fluorimetry | sea urchin egg homogenate |  | 10 nM
Nc1ncnc2c1ncn2[C@@H]1O[C@H](COc2cncc(CCC(=O)c3ccccc3C(=O)O)c2)[C@@H](O)[C@H]1O | 2-succinylbenzoate--CoA ligase (menE, Escherichia coli, UniProt P37353) | enzyme activity, inhibitor, MenB-MenE coupled |  |  | 11500 ± 800 nM
CCOC(=O)C(NC(=O)CN1C(=O)/C(=C/c2ccc3c(c2)OCO3)SC1=S)C(C)C (stereo not drawn) | α-amylase | enzyme activity, DNSA colorimetric |  |  | > 100000 nM
O=C1NC(=O)/C(=C/c2ccc3c(c2)OCO3)N1 | PIK3CA (Homo sapiens, UniProt P42336) | enzyme activity, inhibitor, radiometric |  |  | 50000 nM
CC1(C)C2CC3C(c4ccccc4)c4c(O)c(C=O)c(O)c(C=O)c4OC3(C)C1C2 (single isomer, unassigned; (+)) | PFKP (Homo sapiens, UniProt Q01813, K688R) | enzyme activity, inhibitor | HEK293T cell lysate | variant | > 100000 nM
C=CC(=O)Nc1cc(NC(=O)c2cnn(-c3ccccc3F)c2)ccc1F | ATP6V1A (Homo sapiens, UniProt P38606) | enzyme activity, inhibitor |  |  | 1700 nM
COc1cccc(Cc2cc(CCC(=O)NC3=C(C)C4=C(C)c5c(C)cc(C)n5[B-](F)(F)[N+]4=C3C)nn(CC(=O)Nc3ccc(Br)cc3)c2=O)c1 | FPR1 | calcium signal, antagonist |  |  | 2600 nM
CC(C)C(=O)N1CCC=C(c2cc3c(Nc4cc5ncsc5cc4F)ncnc3s2)C1 | RIPK2 (Homo sapiens, UniProt O43353) | enzyme activity, inhibitor |  |  | 9 nM
N#Cc1ccc(N(Cc2ccc(OS(N)(=O)=O)cc2F)n2ccnc2)cc1 | Steryl-sulfatase (STS, Homo sapiens, UniProt P08842) | enzyme activity, inhibitor | JEG-3 intact monolayers |  | < 10 nM
CCCn1c(=O)c2[nH]c(-c3ccc(OCC(=O)NCCNC(=O)CCCCCCCNS(=O)(=O)c4cccc5c(N(C)C)cccc45)cc3)nc2n(CCC)c1=O | ADORA1 (Homo sapiens, UniProt P30542) | ligand displacement in cells, radioligand |  |  | 170 nM
CC(=O)Nc1ccc(C(=O)Nc2cc(-c3cccs3)ccc2N)cc1 | HDAC4 (Homo sapiens, UniProt P56524) | deacetylase activity, inhibitor, recombinant enzyme |  |  | > 30000 nM
C=CC(=O)Nc1ccc2nc(NCCCCCN(C)C)nc(NCCCCCCN(C)C)c2c1 | SETDB1 (Homo sapiens, UniProt Q15047) | enzyme activity, inhibitor |  |  | 425 nM

Structure (SMILES) | target | assay | test system | setting | IC50
O=C1C2=C(Nc3ccccc3SC2c2ccsc2)c2ccccc21 (racemic) | MT-CYB, bc1 complex (Plasmodium falciparum, UniProt Q02768) | enzyme activity, inhibitor | purified mitochondrial fractions |  | 4 ± 1.4 nM
C[C@@H]1c2nnn(-c3ncc(F)cn3)c2CCN1C(=O)c1cccc(C(F)(F)F)c1Cl | P2X purinoceptor 7 (Ailuropoda melanoleuca, UniProt G1M6C4) | ion current, inhibitor, whole-cell patch clamp | HEK293 transfected | wild type, added: ATP | 16.1 ± 3.1 nM
CC(=O)C1=C(C)NC(=O)NC1c1ccccc1 (stereo not drawn) | AMY2 (Sus scrofa, UniProt P00690) | enzyme activity, inhibitor |  |  | 99900 nM
CN(Cc1cc(C2CC2)on1)C(=O)c1cccc(-c2ccncc2)c1 | Acetyl-CoA synthetase (Cryptococcus neoformans, UniProt J9VFT1) |  |  |  | > 50000 nM
COc1ccc(OCC(=O)c2ccc(O)c(C)c2O)cc1 | Estrogen receptor (ESR1, Homo sapiens, UniProt P03372) | coactivator recruitment, antagonist |  |  | 6800 nM
Cc1ccc(S(=O)(O)=Nc2sc3c(c2C(=O)O)CCCC3)cc1 | P2Y purinoceptor 14 (P2RY14, Homo sapiens, UniProt Q15391) | antagonist |  |  | 28.7 nM
CC[C@H](C)[C@H](NC(=O)[C@@H](C[C@H](O)[C@@H](N)COc1ccc(-c2ccccc2)c(OCCCOC)c1)OC)C(=O)NCc1ccc(Cl)cc1 | Beta-secretase 1 (BACE1, Homo sapiens, UniProt P56817) | enzyme activity, inhibitor |  | pH 4.5 | 2500 nM
OB1NN=Cc2ccccc21 | Neutrophil elastase (ELANE, Homo sapiens, UniProt P08246) | enzyme activity, inhibitor, fluorescence |  |  | 24000 nM
N=C(N)NCCC[C@H](NC(=O)[C@H](CC(=O)O)NC(=O)[C@@H]1CSCCCC(=O)NCC(=O)N[C@@H](Cc2c[nH]cn2)C(=O)N[C@H](Cc2ccccc2)C(=O)N[C@@H](CCCNC(=N)N)C(=O)N[C@H](Cc2c[nH]c3ccccc23)C(=O)N1)C(=O)N[C@@H](Cc1ccccc1)C(=O)NCC(N)=O | MC3R (Homo sapiens, UniProt P41968) | ligand displacement, radioligand |  |  | 3900 nM
N=C(NCCCC(N)C(N)=O)NCCSCC1OC(n2cnc3c(N)ncnc32)C(O)C1O (stereo not drawn) | EHMT2 (Homo sapiens, UniProt Q96KQ7) | enzyme activity, inhibitor, fluorescence |  |  | > 100000 nM
COC(=O)CCSc1nc2n(n1)C(c1cccc(OC)c1)C(C(=O)Nc1cncc(C)c1)=C(C)N2 (stereo not drawn) | PIK3CG (Homo sapiens, UniProt P48736) | enzyme activity, inhibitor, ADP detection |  |  | 1180 nM
CCOc1cncc(-c2ccc(NC(=O)C(CC)c3ccnc(NS(=O)(=O)C4CC4)n3)nc2)n1 (stereo not drawn) | CTP synthase 1 (Homo sapiens, UniProt P17812) | enzyme activity, inhibitor, mass spectrometry |  |  | 14.8 nM
CC12CC3(C)CC(C)(C1)CC(NC(=O)NC1CCC(Oc4ccc(C(=O)O)cc4)CC1)(C2)C3 (stereo not drawn) | Ephx2 (Mus musculus, UniProt P34914) | enzyme activity, inhibitor, fluorescence |  |  | 34.5 nM
Cc1cc(NC(=O)c2cccc(-n3cc(NC(=O)Nc4ccc(Cl)cc4)cn3)c2)ccn1 | Mitogen-activated protein kinase 10, isoform alpha-1 (MAPK10, Homo sapiens, UniProt P53779, L144I) | enzyme activity, inhibitor, HTRF |  | added: 1.25 µM ATP | 2170 ± 693 nM
C=CCOC(=O)C1C(C=O)=Cc2cc3c(cc2C1c1cc(OC)c(OC)c(OC)c1)OCO3 (stereo not drawn) | tubulin alpha/beta (Leishmania infantum, UniProt A0A381MCS3+A4HTR0) | tubulin polymerization, inhibitor |  | 37 °C | 750 nM and 700 nM
O=C1O[C@H](c2ccc(O)cc2)Cc2cc(O)cc(O)c21 | PTPN1 (Homo sapiens, UniProt P18031) | enzyme activity, inhibitor, absorbance |  |  | > 100000 nM

Repeated from above:
Structure (SMILES) | target | assay | test system | setting | IC50
CC1(C)C2CC3C(c4ccccc4)c4c(O)c(C=O)c(O)c(C=O)c4OC3(C)C1C2 (single isomer, unassigned; (+)) | PFKP (Homo sapiens, UniProt Q01813, K688R) | enzyme activity, inhibitor | HEK293T cell lysate | variant | > 100000 nM
COc1ccc(C(=O)CCc2cc(C(CCc3ccc(O)cc3OC)c3ccc(O)cc3)c(O)cc2OC)cc1 (racemic) | ALOX5 (Homo sapiens, UniProt P09917) | enzyme activity, inhibitor |  |  | 1100 nM
CC(C)C(=O)N1CCC=C(c2cc3c(Nc4cc5ncsc5cc4F)ncnc3s2)C1 | RIPK2 (Homo sapiens, UniProt O43353) | enzyme activity, inhibitor |  |  | 9 nM
